Results gathered from unrelated publications.
Compare with care: the assays were run in different laboratories. Values joined by “and” are separate records of one study, mostly repeats; a detail may differ. Numbers after ± are the reported error. Values after ≈ are worked out from the molar mass of the structure shown.
UniProt Q96SB4, sequence (whole entry, looked up): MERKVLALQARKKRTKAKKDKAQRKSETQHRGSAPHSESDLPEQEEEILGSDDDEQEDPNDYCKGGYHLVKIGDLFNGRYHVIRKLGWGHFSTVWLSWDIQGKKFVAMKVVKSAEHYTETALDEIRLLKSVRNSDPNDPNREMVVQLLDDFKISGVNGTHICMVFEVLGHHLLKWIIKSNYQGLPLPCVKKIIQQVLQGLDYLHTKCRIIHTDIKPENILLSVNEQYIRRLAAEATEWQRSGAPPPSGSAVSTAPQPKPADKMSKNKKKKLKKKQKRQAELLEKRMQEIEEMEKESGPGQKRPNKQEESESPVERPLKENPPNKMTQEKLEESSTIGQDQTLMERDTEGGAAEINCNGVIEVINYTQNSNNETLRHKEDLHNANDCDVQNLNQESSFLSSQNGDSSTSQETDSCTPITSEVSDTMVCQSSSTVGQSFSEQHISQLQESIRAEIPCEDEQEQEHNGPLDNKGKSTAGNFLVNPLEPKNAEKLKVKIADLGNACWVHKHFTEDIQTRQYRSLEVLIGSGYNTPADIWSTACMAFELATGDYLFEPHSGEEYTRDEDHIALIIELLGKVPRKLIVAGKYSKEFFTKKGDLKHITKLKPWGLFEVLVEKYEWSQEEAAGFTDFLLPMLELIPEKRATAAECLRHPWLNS
UniProt Q9UK32, sequence (whole entry, looked up): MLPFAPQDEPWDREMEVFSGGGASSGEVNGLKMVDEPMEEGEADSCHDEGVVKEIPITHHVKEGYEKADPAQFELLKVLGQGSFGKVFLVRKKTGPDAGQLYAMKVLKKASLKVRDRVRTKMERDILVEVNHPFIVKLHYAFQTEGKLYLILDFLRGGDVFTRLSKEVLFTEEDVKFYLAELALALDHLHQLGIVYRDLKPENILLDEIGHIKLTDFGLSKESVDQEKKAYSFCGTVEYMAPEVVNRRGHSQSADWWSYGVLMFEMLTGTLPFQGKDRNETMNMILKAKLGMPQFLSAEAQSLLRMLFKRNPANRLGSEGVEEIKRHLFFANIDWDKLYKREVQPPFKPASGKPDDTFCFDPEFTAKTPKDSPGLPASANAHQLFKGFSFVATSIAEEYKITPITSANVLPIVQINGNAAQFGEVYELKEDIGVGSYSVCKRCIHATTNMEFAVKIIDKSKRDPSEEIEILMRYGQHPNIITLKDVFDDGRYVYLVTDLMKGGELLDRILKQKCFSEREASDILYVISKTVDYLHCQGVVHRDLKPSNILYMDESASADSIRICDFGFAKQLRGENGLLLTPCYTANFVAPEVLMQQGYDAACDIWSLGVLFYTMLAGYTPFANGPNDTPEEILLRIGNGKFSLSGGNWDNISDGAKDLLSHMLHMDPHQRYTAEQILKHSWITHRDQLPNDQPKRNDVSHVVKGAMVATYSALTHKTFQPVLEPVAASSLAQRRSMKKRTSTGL
UniProt Q16566, sequence (whole entry, looked up): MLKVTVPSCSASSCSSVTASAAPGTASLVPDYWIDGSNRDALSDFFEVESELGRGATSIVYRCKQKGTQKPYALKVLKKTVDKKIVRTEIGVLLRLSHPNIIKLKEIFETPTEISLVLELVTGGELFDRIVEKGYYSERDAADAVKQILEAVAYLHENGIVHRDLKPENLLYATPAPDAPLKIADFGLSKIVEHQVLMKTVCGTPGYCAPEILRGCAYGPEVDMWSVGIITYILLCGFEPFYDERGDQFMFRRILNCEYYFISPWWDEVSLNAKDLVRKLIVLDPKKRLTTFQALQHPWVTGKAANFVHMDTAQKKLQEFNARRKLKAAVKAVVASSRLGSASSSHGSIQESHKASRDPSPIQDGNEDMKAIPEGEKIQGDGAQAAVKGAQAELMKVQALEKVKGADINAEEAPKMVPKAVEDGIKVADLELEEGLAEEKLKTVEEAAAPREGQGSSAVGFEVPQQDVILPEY

Cc1ccc(-c2nc3ccc(C)cn3c2CC(=O)NCc2ccc(N(C)C)cc2)cc1
MIC (Mycobacteroides abscessus; ATCC 19977; 72 h): > 50 µM

CS(C)(=O)=Nc1ccc(-c2ccc(-c3nc4cc(O[C@@H]5CO[C@H]6[C@@H]5OC[C@H]6O)[nH]c4cc3F)cc2)cc1
inhibition (Calcium/calmodulin-dependent protein kinase type IV (CAMK4, Homo sapiens, UniProt Q16566); enzyme activity, inhibitor; 10 µM): 8%

CC(C)CC(C(=O)N1CC2(CC1C#N)C(=O)Nc1ccccc12)N(C)C(=O)c1cc2c(F)cc(F)c(F)c2[nH]1 (stereo not shown)
inhibition (Human coronavirus 229E; cytopathic effect; MRC5; 39 pM): 0%

CN[C@@H]1[C@H](O)[C@H](NC)[C@H]2O[C@]3(O)[C@H](O[C@@H]2[C@H]1O)O[C@H](C)C[C@H]3NC(=O)Cc1ccc(F)cn1
MIC (Streptococcus pyogenes; microbial growth, broth dilution; ATCC700294): 12.5 µg/mL

Cc1ccc2nc(C)c(CC(=O)NCc3ccc(N(C)C)cc3)n2c1
MIC (Mycobacterium kansasii; microbial growth; 6 days): 49.9 µM

CN[C@@H]1[C@H](O)[C@H](NC)[C@H]2O[C@]3(O)[C@H](O[C@@H]2[C@H]1O)O[C@H](C)C[C@H]3NC(=O)Cc1cc(Cl)ccn1
MIC (Proteus vulgaris; microbial growth, broth dilution; ATCC33420): > 200 µg/mL

Cc1ccc2nc(C)c(C(=O)C(=O)N(C)C)n2c1
MIC (Mycobacterium avium; microbial growth; 6 days): > 128 µM

CC(C)(C)C(=O)OCOP(=O)(OCOC(=O)C(C)(C)C)C1CCCN(O)C1=O (stereo not shown)
log TGI (SK-MEL-5): -5.8 log M

O=C(NNc1ccc(Cl)cc1)c1nnc(CC23CC4CC(CC(C4)C2)C3)o1
EC50 (Fusarium graminearum; fungal growth, inhibitor): 0.77 ± 0.04 µg/mL (≈ 1.99 µM)

CN(C)[C@H]1C[C@@]23CC[C@@]4(O2)C(=CC[C@]2(C)[C@@H](c5ccc6ccncc6c5)CC[C@H]24)C=C3[C@@H](O)[C@@H]1O
inhibition (SRSF protein kinase 1 (SRPK1, Homo sapiens, UniProt Q96SB4); ATP probe labelling, inhibitor, KiNativ profiling; 1 µM): 1%

CN[C@@H]1[C@H](O)[C@H](NC)[C@H]2O[C@]3(O)[C@H](O[C@@H]2[C@H]1O)O[C@H](C)C[C@H]3NC(=O)Cc1cscn1
MIC (Proteus vulgaris; microbial growth, broth dilution; ATCC33420): > 200 µg/mL

O=C1NC(=O)c2c1c1cc(F)c[n+]3c1c1c2c2cc(O)ccc2[n]1[Ru-4]312([N]=C=S)[S+]3CC[S+]1CC[S+]2CC3 (stereo not shown)
remaining activity (Ribosomal protein S6 kinase alpha-6 (RPS6KA6, Homo sapiens, UniProt Q9UK32); enzyme activity; 100 nM, human enzyme, with: 10 µM ATP; baseline: untreated): 3%

O=C1NC2(CC2)COc2ncc(F)cc2[C@H]2COCCN2c2ccn3ncc1c3n2
total cholesterol (Sprague-Dawley rat, male, serum; oral, 5 mg/kg/day, 4 weeks daily, end of recovery period): 1.24 ± 0.16 mmol/L

CCc1ccn2c(C(=O)NCc3ccc(C)cc3)c(C)nc2c1
MIC (Mycobacteroides abscessus; ATCC 19977; 72 h): > 50 µM

Cc1cc(C(=O)Nc2nc3cccc(C)c3n2[C@H]2CCCCN(C(=O)/C=C/CN(C)C)C2)ccn1
survival (Trypanosoma brucei brucei; 2T1 wild type; 15 x EC50): -0.092% and -0.015% and -0.019% and -0.106%

COc1ccccc1-c1n[nH]c2nc(N[C@H]3CC[C@H](NS(=O)(=O)CC(C)C)CC3)ncc12
relative abundance (bead binding, competition bead pull-down, refers to: LINJ.36.2790; Leishmania donovani extract; 10 µM; baseline: vehicle): 1.32

CN[C@@H]1[C@H](O)[C@H](NC)[C@H]2O[C@]3(O)[C@H](O[C@@H]2[C@H]1O)O[C@H](C)C[C@H]3NC(=O)Cc1ccccc1
MIC (Proteus vulgaris; microbial growth, broth dilution; ATCC33420): > 200 µg/mL

Cc1cc(Oc2nc(N3CC[C@@H](c4ccncc4)C3)ncc2F)[nH]n1
normalised growth (Mycobacterium tuberculosis; OD; H37Rv PurF CRISPRi knockdown; 1.5e-05 µM, with: anhydrotetracycline low): 98% and 101%

C=CCN1C(=O)C(CC=C)(C(=O)OCC)Oc2cc(F)ccc21 (stereo not shown)
inhibition (Fusarium graminearum; microbial growth; 200 µg/mL): > 50%

CON(C(=O)c1cn(C)nc1C(F)F)C(C)Cc1c(Cl)cc(Cl)cc1Cl (stereo not shown)
EC50 (Fusarium pseudograminearum; spore germination; 12 h, 28 °C): 0.097 µg/mL (≈ 0.227 µM)

CC[C@H](C)[C@H](NC(=O)[C@H](CO)NC(=O)[C@H](Cc1ccc(O)cc1)NC(=O)[C@H](Cc1ccc(O)cc1)NC(=O)[C@H](CC(N)=O)NC(=O)CNC(=O)[C@H](CO)NC(=O)[C@H](Cc1ccc(O)cc1)NC(=O)[C@H](CO)NC(=O)[C@H](CO)NC(=O)[C@H](CC(N)=O)NC(=O)COCCOCCNC(=O)CN1CCN(CC(=O)O)CCN(CC(=O)O)CCN(CC(=O)O)CC1)C(=O)N[C@@H](CC(C)C)C(N)=O [copper-64 labelled]
tumour uptake (dynamic PET; KPC mouse, pancreatic cancer model, blood; intravenous, 27.5 min, 49 days after tamoxifen): 3.35 %ID/mL

Cc1ccc(CNC(=O)Cc2c(C)nc3ccc(C)cn23)cc1
MIC (Mycobacterium kansasii; microbial growth; 6 days): > 50 µM

CO[C@H]1/C=C/O[C@@]2(C)Oc3c(C)c(O)c4c(c3C2=O)C2=NC3(CCN(CC(C)C)CC3)NC2=C(NC(=O)/C(C)=C\C=C\[C@H](C)[C@H](O)[C@@H](C)[C@@H](O)[C@@H](C)[C@H](OC(=O)c2ccccc2)[C@@H]1C)C4=O
MIC (Mycobacteroides abscessus; RFB-R1 rifamycin-resistant RNAP mutant; 90% growth inhibition): > 100 µM

CCN(CC)CCO.O=C(O)C(Cl)Cl
herbicidal inhibition (Eleusine indica; 15 mg/mL, 21 days, pre-emergence, greenhouse): 0%

O=C(NNc1ccccc1)c1nnc(C23CC4CC(CC(C4)C2)C3)o1
inhibition (Pyricularia grisea; microbial growth; 50 µg/mL): 44.3%

Cc1ccc(CNC(=O)C(=O)c2c(C)nc3ccc(C)cn23)cc1
MIC (Mycobacterium kansasii; microbial growth; 6 days): 53.7 µM

CN[C@@H]1[C@H](O)[C@H](NC)[C@H]2O[C@]3(O)[C@H](O[C@@H]2[C@H]1O)O[C@H](C)C[C@H]3NC(=O)Cc1ccc(Cl)cn1
MIC (Mycobacterium avium; microbial growth; ATCC25291): 25 µg/mL

Cc1nc2cc(C(F)(F)F)ccn2c1C(=O)NCc1ccc2oc(-c3ccc(Cl)cc3)nc2c1
MIC90 (Mycobacteroides abscessus; RFP fluorescence; ATCC 19977, RFP reporter): > 100 µM

CN[C@@H]1[C@H](O)[C@H](NC)[C@H]2O[C@]3(O)[C@H](O[C@@H]2[C@H]1O)O[C@H](C)C[C@H]3NC(=O)Cc1ccccn1
MIC (Mycobacterium avium; microbial growth; ATCC25291): 50 µg/mL

Cc1ccc2nc(C)c(C(=O)C(=O)NCc3ccccc3)n2c1
MIC (Mycobacterium avium; microbial growth; 6 days): 1.8 µM

COc1ccccc1-c1n[nH]c2nc(NC3CCN(C(=O)Cc4ccc(F)cc4F)CC3)ncc12
relative abundance (Leishmania donovani CYCA (LINJ.25.1530); bead binding competition; Leishmania donovani extract; 10 µM; baseline: vehicle): 0.72
